Experimental data of several laboratories.
Parts stem from different laboratories: compare values within a part only. Several values in a cell are separate wells, animals, samples, runs or records.
UniProt P10721, sequence (whole entry, unmodified, looked up): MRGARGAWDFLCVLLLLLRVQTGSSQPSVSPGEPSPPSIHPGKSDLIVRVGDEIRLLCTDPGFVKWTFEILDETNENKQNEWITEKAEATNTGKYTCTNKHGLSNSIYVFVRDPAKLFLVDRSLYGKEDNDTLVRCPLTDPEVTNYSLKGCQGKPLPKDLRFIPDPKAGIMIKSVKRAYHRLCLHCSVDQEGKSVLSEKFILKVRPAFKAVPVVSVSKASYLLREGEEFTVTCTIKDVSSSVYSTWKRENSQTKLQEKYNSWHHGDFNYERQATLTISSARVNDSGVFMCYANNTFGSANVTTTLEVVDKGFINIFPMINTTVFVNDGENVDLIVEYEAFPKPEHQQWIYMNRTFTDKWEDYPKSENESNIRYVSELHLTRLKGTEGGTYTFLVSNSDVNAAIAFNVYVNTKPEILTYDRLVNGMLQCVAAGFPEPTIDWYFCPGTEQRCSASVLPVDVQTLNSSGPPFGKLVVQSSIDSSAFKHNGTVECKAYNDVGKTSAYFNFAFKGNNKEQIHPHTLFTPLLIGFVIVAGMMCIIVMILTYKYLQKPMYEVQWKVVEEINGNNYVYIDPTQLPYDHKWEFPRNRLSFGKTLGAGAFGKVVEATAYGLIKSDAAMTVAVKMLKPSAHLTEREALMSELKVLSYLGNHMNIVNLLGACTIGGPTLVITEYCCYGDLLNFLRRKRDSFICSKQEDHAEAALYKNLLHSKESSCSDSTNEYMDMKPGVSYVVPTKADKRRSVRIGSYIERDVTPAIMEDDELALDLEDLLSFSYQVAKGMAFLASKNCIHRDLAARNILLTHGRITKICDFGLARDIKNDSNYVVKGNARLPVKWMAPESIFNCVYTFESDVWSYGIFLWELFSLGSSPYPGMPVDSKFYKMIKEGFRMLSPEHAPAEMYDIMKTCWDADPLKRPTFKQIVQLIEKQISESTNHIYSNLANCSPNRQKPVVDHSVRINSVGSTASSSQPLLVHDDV
UniProt Q9BQI3, sequence (whole entry, looked up): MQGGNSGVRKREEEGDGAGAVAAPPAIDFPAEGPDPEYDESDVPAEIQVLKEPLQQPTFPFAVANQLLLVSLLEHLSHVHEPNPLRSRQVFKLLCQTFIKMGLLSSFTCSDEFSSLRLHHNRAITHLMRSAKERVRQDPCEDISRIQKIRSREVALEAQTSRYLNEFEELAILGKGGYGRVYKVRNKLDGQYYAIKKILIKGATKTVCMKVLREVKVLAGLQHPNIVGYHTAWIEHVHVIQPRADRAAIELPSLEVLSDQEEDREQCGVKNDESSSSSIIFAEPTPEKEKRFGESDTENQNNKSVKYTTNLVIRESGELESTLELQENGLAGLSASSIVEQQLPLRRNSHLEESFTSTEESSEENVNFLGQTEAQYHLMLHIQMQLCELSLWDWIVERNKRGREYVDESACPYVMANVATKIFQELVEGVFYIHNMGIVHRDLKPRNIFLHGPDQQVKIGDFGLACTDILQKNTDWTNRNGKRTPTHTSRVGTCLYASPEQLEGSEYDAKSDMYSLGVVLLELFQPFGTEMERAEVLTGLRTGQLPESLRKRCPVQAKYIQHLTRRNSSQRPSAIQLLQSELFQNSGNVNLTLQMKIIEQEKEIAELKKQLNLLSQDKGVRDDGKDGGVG
UniProt Q04759, sequence (whole entry, looked up): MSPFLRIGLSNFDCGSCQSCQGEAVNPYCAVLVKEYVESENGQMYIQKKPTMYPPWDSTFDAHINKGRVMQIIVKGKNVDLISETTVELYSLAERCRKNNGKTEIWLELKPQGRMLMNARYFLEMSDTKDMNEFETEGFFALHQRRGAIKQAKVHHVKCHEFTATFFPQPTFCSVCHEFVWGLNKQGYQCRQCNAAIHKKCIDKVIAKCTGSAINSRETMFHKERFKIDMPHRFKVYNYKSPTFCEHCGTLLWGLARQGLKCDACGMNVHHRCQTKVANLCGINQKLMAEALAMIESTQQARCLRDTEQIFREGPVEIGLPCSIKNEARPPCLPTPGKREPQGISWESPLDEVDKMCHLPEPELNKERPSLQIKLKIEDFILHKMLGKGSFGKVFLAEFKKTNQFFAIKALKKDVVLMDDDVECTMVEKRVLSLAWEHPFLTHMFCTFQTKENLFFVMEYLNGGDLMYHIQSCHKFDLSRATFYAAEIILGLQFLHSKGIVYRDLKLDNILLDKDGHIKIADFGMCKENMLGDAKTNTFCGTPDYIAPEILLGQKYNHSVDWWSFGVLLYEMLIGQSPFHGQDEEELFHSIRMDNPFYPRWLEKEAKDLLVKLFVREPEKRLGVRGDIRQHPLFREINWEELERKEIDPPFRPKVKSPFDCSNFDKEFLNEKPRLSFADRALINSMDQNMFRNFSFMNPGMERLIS
UniProt Q16288, sequence (whole entry, looked up): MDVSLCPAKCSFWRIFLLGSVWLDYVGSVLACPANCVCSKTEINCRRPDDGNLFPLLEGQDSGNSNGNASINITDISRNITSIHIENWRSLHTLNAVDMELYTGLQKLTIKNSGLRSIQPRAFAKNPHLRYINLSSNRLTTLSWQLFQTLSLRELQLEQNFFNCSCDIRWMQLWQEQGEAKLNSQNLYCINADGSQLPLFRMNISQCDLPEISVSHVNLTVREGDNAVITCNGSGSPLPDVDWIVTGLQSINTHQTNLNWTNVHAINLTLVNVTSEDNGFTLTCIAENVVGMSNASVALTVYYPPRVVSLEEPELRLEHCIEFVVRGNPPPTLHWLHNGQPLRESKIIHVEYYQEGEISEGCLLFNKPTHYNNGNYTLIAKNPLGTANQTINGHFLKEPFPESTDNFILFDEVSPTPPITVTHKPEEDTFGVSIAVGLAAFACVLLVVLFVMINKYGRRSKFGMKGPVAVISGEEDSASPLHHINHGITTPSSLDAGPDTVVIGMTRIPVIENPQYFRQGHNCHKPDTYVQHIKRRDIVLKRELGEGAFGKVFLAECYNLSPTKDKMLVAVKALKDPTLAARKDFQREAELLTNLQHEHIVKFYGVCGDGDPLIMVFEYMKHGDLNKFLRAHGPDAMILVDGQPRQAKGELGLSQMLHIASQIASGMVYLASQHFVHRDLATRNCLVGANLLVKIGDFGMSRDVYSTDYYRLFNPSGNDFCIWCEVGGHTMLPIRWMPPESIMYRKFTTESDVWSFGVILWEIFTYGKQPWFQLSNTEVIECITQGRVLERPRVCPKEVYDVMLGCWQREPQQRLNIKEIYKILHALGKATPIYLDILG
UniProt P53778, sequence (whole entry, looked up): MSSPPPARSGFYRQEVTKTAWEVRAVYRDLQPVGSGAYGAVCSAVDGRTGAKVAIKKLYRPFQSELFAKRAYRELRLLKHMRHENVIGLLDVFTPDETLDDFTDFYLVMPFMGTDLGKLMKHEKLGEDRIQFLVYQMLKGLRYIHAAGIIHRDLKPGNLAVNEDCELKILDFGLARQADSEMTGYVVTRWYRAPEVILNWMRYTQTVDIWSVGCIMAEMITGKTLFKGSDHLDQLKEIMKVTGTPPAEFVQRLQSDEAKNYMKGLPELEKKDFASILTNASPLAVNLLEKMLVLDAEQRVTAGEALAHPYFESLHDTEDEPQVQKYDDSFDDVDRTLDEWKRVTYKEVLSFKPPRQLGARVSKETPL
UniProt Q86UE8, sequence (whole entry, looked up): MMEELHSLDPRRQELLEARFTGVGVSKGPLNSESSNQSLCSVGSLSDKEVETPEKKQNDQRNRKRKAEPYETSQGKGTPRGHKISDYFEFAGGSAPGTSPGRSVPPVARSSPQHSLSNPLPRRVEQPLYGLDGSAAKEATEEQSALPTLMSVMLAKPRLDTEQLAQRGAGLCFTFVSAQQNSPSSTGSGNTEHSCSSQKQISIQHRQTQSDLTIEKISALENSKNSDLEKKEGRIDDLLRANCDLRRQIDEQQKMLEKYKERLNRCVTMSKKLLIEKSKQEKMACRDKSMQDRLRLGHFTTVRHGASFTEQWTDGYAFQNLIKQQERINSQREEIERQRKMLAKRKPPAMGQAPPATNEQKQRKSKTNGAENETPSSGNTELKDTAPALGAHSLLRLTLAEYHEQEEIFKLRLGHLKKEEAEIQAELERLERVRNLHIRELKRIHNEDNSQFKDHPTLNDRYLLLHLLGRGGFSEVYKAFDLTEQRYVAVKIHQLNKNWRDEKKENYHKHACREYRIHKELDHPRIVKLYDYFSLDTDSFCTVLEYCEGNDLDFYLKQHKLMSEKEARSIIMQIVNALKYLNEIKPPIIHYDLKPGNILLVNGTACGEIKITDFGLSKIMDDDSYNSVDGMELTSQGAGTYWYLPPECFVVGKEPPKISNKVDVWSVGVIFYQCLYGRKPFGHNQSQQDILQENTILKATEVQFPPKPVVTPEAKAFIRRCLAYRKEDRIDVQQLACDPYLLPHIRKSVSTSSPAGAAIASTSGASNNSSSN
UniProt P20794, sequence (whole entry, looked up): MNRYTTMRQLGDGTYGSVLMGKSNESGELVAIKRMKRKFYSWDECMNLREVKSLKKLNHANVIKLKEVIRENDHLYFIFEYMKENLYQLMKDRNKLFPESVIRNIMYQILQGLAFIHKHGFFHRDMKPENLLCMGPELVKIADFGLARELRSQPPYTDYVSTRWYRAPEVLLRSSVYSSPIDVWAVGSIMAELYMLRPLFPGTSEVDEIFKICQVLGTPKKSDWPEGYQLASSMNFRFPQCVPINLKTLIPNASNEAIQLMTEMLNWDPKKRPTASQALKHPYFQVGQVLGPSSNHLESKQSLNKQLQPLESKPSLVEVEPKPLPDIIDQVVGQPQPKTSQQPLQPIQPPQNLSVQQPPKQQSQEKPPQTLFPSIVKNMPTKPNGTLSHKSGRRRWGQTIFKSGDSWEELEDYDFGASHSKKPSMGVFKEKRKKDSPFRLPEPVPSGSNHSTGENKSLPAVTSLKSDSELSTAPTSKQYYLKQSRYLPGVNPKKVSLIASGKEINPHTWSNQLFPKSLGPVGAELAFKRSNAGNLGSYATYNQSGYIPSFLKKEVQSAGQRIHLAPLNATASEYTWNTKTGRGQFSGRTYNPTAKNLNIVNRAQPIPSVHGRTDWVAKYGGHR

Series 1 — Compound: CCC(=N\O)/C(C)=C/c1ccc(F)cc1; concentration: 1 µM
For TLK2 (Homo sapiens, UniProt Q86UE8); cell-free assay, competition with immobilised ligand: remaining binding read 100%.
It gave 100% for remaining binding (BRSK2 (Homo sapiens, UniProt Q8IWQ3); cell-free assay, competition with immobilised ligand).
The remaining binding was 64% (TRPM6 (Homo sapiens, UniProt Q9BX84); cell-free assay, competition with immobilised ligand).
The remaining binding was 46% (ULK2 (Homo sapiens, UniProt Q8IYT8); cell-free assay, competition with immobilised ligand).
It gave 100% for remaining binding (KIT (Homo sapiens, UniProt P10721, V559D); cell-free assay, competition with immobilised ligand).
The remaining binding was 67% (FLT3 (Homo sapiens, UniProt P36888, F691L/ITD); cell-free assay, competition with immobilised ligand).
For PRKCQ (Homo sapiens, UniProt Q04759); cell-free assay, competition with immobilised ligand: remaining binding read 80%.
The remaining binding was 100% (EIF2AK1 (Homo sapiens, UniProt Q9BQI3); cell-free assay, competition with immobilised ligand).
Mast/stem cell growth factor receptor Kit, autoinhibited (KIT, Homo sapiens, UniProt P10721); cell-free assay, competition with immobilised ligand — remaining binding: 80%.
For MYLK3 (Homo sapiens, UniProt Q32MK0); cell-free assay, competition with immobilised ligand: remaining binding read 86%.
For ZAP70 (Homo sapiens, UniProt P43403); cell-free assay, competition with immobilised ligand: remaining binding read 96%.
The remaining binding was 94% (DYRK2 (Homo sapiens, UniProt Q92630); cell-free assay, competition with immobilised ligand).
It gave 76% for remaining binding (MAP3K12 (Homo sapiens, UniProt Q12852); cell-free assay, competition with immobilised ligand).
For MAK (Homo sapiens, UniProt P20794); cell-free assay, competition with immobilised ligand: remaining binding read 100%.
NTRK3 (Homo sapiens, UniProt Q16288); cell-free assay, competition with immobilised ligand — remaining binding: 88%.
It gave 76% for remaining binding (ACVRL1 (Homo sapiens, UniProt P37023); cell-free assay, competition with immobilised ligand).
It gave 83% for remaining binding (IKBKB (Homo sapiens, UniProt O14920); cell-free assay, competition with immobilised ligand).
It gave 83% for remaining binding (PIP4K2C (Homo sapiens, UniProt Q8TBX8); cell-free assay, competition with immobilised ligand).
STK32B (Homo sapiens, UniProt Q9NY57); cell-free assay, competition with immobilised ligand — remaining binding: 100%.
The remaining binding was 79% (GRK1 (Homo sapiens, UniProt Q15835); cell-free assay, competition with immobilised ligand).
HIPK4 (Homo sapiens, UniProt Q8NE63); cell-free assay, competition with immobilised ligand — remaining binding: 79%.
The remaining binding was 80% (CDKL3 (Homo sapiens, UniProt Q8IVW4); cell-free assay, competition with immobilised ligand).
It gave 73% for remaining binding (CDC42BPG (Homo sapiens, UniProt Q6DT37); competition binding).
Ribosomal protein S6 kinase alpha-6, N-terminal kinase domain (RPS6KA6, Homo sapiens, UniProt Q9UK32); cell-free assay, competition with immobilised ligand — remaining binding: 81%.
COQ8A (Homo sapiens, UniProt Q8NI60); cell-free assay, competition with immobilised ligand — remaining binding: 78%.

Series 2 — cell line: mouse MPNST tumor cells; method: high-content nuclear imaging; measured: cell number; concentration: 10 µM; time: 12 h; notes: mean of 2 replicates; relative to: plate mean; reading: higher = more cells
`CCC[C@@H]1C[C@@H](C(=O)N[C@@H]([C@H]2O[C@H](SC)[C@H](O)[C@@H](O)[C@H]2O)[C@@H](C)O)N(C)C1` gave a nuclei count of 0.478 z-score.
`Nc1cccc2c1CN(C1CCC(=O)NC1=O)C2=O` (stereo not shown) has a nuclei count of 1.84 z-score.
`CCCc1cc(C)[nH]c(=O)c1CNC(=O)c1cc(-c2ccnc(N3CCN(C)CC3)c2)cc2c1cnn2C(C)C` gave a nuclei count of -5.06 z-score.
The nuclei count of `CN1CCN(C2CCC(n3cc(-c4ccc(Oc5ccccc5)cc4)c4c(N)ncnc43)CC2)CC1` (stereo not shown) is reported as -6.33 z-score.
`Cc1cccc(-c2[nH]c(C34CCC(C(N)=O)(CC3)CC4)nc2-c2ccc3c(c2)OCO3)n1` has a nuclei count of -0.436 z-score.
For `CCCn1c(=O)c2[nH]c(-c3ccc(OCC(=O)O)cc3)nc2n(CCC)c1=O`, the nuclei count was 1.38 z-score.
`CC(C)CC(=O)N[C@H](C(=O)N[C@H](C(=O)N[C@@H](CC(C)C)[C@@H](O)CC(=O)N[C@@H](C)C(=O)N[C@@H](CC(C)C)[C@@H](O)CC(=O)O)C(C)C)C(C)C` gave a nuclei count of 0.0871 z-score.
With `CC(C)(C)NS(=O)(=O)c1cncc(-c2cc(F)c3nc(N)nn3c2)c1` the nuclei count was 0.512 z-score.
The nuclei count of `Cc1ccc(C=C2CNCC(=Cc3ccc(C)cc3)C2=O)cc1` is reported as -0.254 z-score.
With `Brc1ccc(CCC2(Cn3ccnc3)OCCO2)cc1` the nuclei count was 0.666 z-score.
For `COc1nc(N)nc2c1ncn2[C@@H]1O[C@H](CO)[C@@H](O)[C@@H]1O`, the nuclei count was -0.228 z-score and 1.54 z-score.
The nuclei count of `CC(C)n1nc(C#Cc2ccccc2)c2c(N)ncnc21` is reported as 1.33 z-score.
For `CN1CCc2c(c3ccccc3n2Cc2ccccc2)C1`, the nuclei count was 2.54 z-score.

Series 3 — organism: Plasmodium berghei; cell line: Huh-7; strain: liver stage; concentration: 10 µM; time: 24 h; relative to: control
The parasite load of `CSc1ccc2c(c1)N(CCC1CCCCN1C)c1ccccc1S2` (stereo not shown) is reported as 45.1%.
`NC(=O)C(c1ccccc1)(c1ccccc1)[C@@H]1CCN(CCc2ccc3c(c2)CCO3)C1` has a parasite load of 95.9%.
`O=c1n(CCCN2CCN(c3cccc(Cl)c3)CC2)nc2ccccn12` gave a parasite load of 89.8%.
`CC(C)NCC(O)COc1cccc2ccccc12` (racemic) has a parasite load of 87.6%.
`CN1CCC(=C2c3ccccc3C=Cc3ccccc32)CC1` has a parasite load of 68.4%.
`CN[C@H](CC(C)C)C(=O)N[C@H]1C(=O)N[C@@H](CC(N)=O)C(=O)N[C@H]2C(=O)N[C@H]3C(=O)N[C@H](C(=O)N[C@H](C(=O)O)c4cc(O)cc(O)c4-c4cc3ccc4O)[C@H](O)c3ccc(c(Cl)c3)Oc3cc2cc(c3O[C@@H]2O[C@H](CO)[C@@H](O)[C@H](O)[C@H]2O[C@H]2C[C@](C)(N)[C@H](O)[C@H](C)O2)Oc2ccc(cc2Cl)[C@H]1O` has a parasite load of 97.2%.
`CN1[C@@H]2C[C@@H](OC(=O)[C@H](CO)c3ccccc3)C[C@H]1[C@@H]1O[C@@H]12` gave a parasite load of 112%.
For `Clc1ccccc1C(c1ccccc1)(c1ccccc1)n1ccnc1`, the parasite load was 45%.
`CC(=O)[C@H]1CC[C@H]2[C@@H]3CC=C4C[C@@H](OC(=O)CCC(=O)O)CC[C@]4(C)[C@H]3CC[C@]12C` has a parasite load of 50.7%.
With `CN(C)C(=O)Oc1cccc([N+](C)(C)C)c1` the parasite load was 109%.
`O=C(O)c1ccccc1O` gave a parasite load of 107%.
`CC(C)[N+]1(C)[C@@H]2CC[C@H]1C[C@@H](OC(=O)C(CO)c1ccccc1)C2` (stereo partly shown) has a parasite load of 99.2%.
`CC/C(=C(\c1ccccc1)c1ccc(OCCN(C)C)cc1)c1ccccc1` gave a parasite load of 10.4%.
`CCCCc1oc2ccccc2c1C(=O)c1cc(I)c(OCCN(CC)CC)c(I)c1` has a parasite load of 18.8%.
With `CN(C)c1ccc2nc3ccc(=[N+](C)C)cc-3sc2c1` the parasite load was 18.5%.
For `Clc1ccc(COC(Cn2ccnc2)c2ccc(Cl)cc2Cl)cc1` (stereo not shown), the parasite load was 49.7%.
With `Cc1cc2c(s1)Nc1ccccc1N=C2N1CCN(C)CC1` the parasite load was 91.2%.
`Cc1cc(NS(=O)(=O)c2ccc(N)cc2)no1` has a parasite load of 109%.
For `CN1CCN(CC(=O)N2c3ccccc3C(=O)Nc3cccnc32)CC1`, the parasite load was 106%.
The parasite load of `O=C1CCc2ccc(OCCCCN3CCN(c4cccc(Cl)c4Cl)CC3)cc2N1` is reported as 65.5%.

Series 4 — observed: enzyme activity; mode: inhibitor; concentration: 0.5 µM; relative to: control
SMILES: Cc1cncc2cccc(S(=O)(=O)N3CCCN(C(=O)CN)C[C@@H]3C)c12
For CHEK1 (Homo sapiens, UniProt O14757): remaining activity read 100%.
NEK4 (Homo sapiens, UniProt P51957) — remaining activity: 95.3%.
It gave 92.9% for remaining activity (KIT (Homo sapiens, UniProt P10721)).
The remaining activity was 97.1% (STK38 (Homo sapiens, UniProt Q15208)).
For IRAK4 (Homo sapiens, UniProt Q9NWZ3): remaining activity read 109%.
It gave 101% for remaining activity (PLK2 (Homo sapiens, UniProt Q9NYY3)).
It gave 83.8% for remaining activity (MKNK2 (Homo sapiens, UniProt Q9HBH9)).
For CSNK1A1 (Homo sapiens, UniProt P48729): remaining activity read 98.9%.
It gave 54.6% for remaining activity (LRRK2 (Homo sapiens, UniProt Q5S007)).
It gave 107% for remaining activity (MAPK12 (Homo sapiens, UniProt P53778)).
For PRKCD (Homo sapiens, UniProt Q05655): remaining activity read 22.4%.
It gave 87.4% for remaining activity (PRKCI (Homo sapiens, UniProt P41743)).
MAP4K2 (Homo sapiens, UniProt Q12851) — remaining activity: 106%.
It gave 98.8% for remaining activity (AKT3 (Homo sapiens, UniProt Q9Y243)).
For MAPK13 (Homo sapiens, UniProt O15264): remaining activity read 119%.
The remaining activity was 95.1% (EPHA5 (Homo sapiens, UniProt P54756)).
It gave 86.7% for remaining activity (Cyclin-dependent kinase 9, with cyclin T1 (CDK9, Homo sapiens, UniProt P50750)).
MAP3K10 (Homo sapiens, UniProt Q02779) — remaining activity: 105%.
It gave 101% for remaining activity (LYN (Homo sapiens, UniProt P07948)).
The remaining activity was 107% (MAP2K6 (Homo sapiens, UniProt P52564)).
PRKG1 (Homo sapiens, UniProt Q13976) — remaining activity: 78.7%.

Repeated from above (series 1):
It gave 76% for remaining binding (MAP3K12 (Homo sapiens, UniProt Q12852); cell-free assay, competition with immobilised ligand).
The remaining binding was 64% (TRPM6 (Homo sapiens, UniProt Q9BX84); cell-free assay, competition with immobilised ligand).
For MYLK3 (Homo sapiens, UniProt Q32MK0); cell-free assay, competition with immobilised ligand: remaining binding read 86%.
COQ8A (Homo sapiens, UniProt Q8NI60); cell-free assay, competition with immobilised ligand — remaining binding: 78%.
NTRK3 (Homo sapiens, UniProt Q16288); cell-free assay, competition with immobilised ligand — remaining binding: 88%.
The remaining binding was 100% (EIF2AK1 (Homo sapiens, UniProt Q9BQI3); cell-free assay, competition with immobilised ligand).
The remaining binding was 94% (DYRK2 (Homo sapiens, UniProt Q92630); cell-free assay, competition with immobilised ligand).
The remaining binding was 46% (ULK2 (Homo sapiens, UniProt Q8IYT8); cell-free assay, competition with immobilised ligand).
For ZAP70 (Homo sapiens, UniProt P43403); cell-free assay, competition with immobilised ligand: remaining binding read 96%.
Mast/stem cell growth factor receptor Kit, autoinhibited (KIT, Homo sapiens, UniProt P10721); cell-free assay, competition with immobilised ligand — remaining binding: 80%.
It gave 100% for remaining binding (KIT (Homo sapiens, UniProt P10721, V559D); cell-free assay, competition with immobilised ligand).
It gave 100% for remaining binding (BRSK2 (Homo sapiens, UniProt Q8IWQ3); cell-free assay, competition with immobilised ligand).
It gave 73% for remaining binding (CDC42BPG (Homo sapiens, UniProt Q6DT37); competition binding).
